# Measurements pooled from the literature.
# A part holds a random share of what one study measured.

# Block 1
# Target: Sal-like protein 4, full length isoform B (SALL4, Homo sapiens, UniProt Q9UJQ4-2, residues 1-616)
# Technique: universal PBM
# Molecule type: double-stranded DNA, one strand shown
# Sample: in vitro
# Tested at: not given
# Notes: 8-mer, flanks averaged, mean of replicates
# Direction: higher = stronger binding
Oligonucleotide,E-score
ACAGCGCG,-0.267
GCTCTGAC,-0.202
CGGTGGAG,-0.272
ATTGAGTC,-0.0103
ACCAGGGC,-0.256
CTAAGGAA,-0.0224
GCCGCTAC,-0.302
GTATTGCA,0.0683
TTGACAAA,0.313
AGTCGCAC,-0.0735
AATGGAGA,0.0408
ATCCTAAA,0.028
GTCACAAC,-0.0689
TAAAGCAA,0.215
CGCTCGGA,-0.153
CGGTAGAA,-0.214
CCTTGACC,-0.272
ATTACACC,0.0346
CGTGCCAC,-0.331
GCCAGCCA,-0.243
ACAGGTTG,-0.016
GAAACTGA,-0.097
ACCATAAA,0.299
CCCTGGAG,-0.354

# Block 2
# Target: Interferon regulatory factor 7, full length, phosphomimetic (IRF7, Homo sapiens, UniProt Q92985, residues 1-503, S471D/S472D/S475D/S476D/S477D/S483D/S484D/S487D)
# Chain of UniProt Q92985 (whole entry, unmodified, looked up): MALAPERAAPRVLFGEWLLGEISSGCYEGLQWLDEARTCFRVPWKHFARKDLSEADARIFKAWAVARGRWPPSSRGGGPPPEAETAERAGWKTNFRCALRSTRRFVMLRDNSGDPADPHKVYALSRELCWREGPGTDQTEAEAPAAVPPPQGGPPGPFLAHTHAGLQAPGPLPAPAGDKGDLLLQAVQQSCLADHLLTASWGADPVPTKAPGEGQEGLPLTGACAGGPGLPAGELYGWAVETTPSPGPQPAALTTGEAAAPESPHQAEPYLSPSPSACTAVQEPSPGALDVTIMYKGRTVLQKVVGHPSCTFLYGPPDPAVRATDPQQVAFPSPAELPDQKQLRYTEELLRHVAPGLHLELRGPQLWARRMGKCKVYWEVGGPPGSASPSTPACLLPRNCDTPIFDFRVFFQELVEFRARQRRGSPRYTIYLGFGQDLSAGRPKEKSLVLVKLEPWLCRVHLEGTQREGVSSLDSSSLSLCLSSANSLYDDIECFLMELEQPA
# Technique: protein-binding microarray
# Molecule type: double-stranded DNA, one strand shown
# Sample: in vitro
# Tested at: 2200 nM top
# Notes: 60-bp whole probe
# Added: salmon DNA 0.4 mg/ml
# Baseline: random background probes
# Direction: higher = stronger binding
# Constant ends, left off below: GCCTAGCAC … GTCTTGATTCGCTTGACGCTGCTG
Oligonucleotide,fitted relative affinity
GCCGGTTCCCTTTTCCTGACGTGCTAG,3.09 z-score
GACTGTATCGACTATCGGGACGTGCTA,0.359 z-score
TACGGTATCGACTTTCGGGACGTGCTA,3.28 z-score
TTAGGTATCGTTTTCGGTTAGTGCTAG,6.9 z-score
TCATGCTTGTGTCTGGGACTGTGCTAG,0.547 z-score
GACGGTATCCACTTTCGGGACGTGCTA,5.16 z-score
TCAGAACTGAGTATCGATTAGTGCTAG,-0.285 z-score
TTAGGTATCGGTATAGGTTAGTGCTAG,0.334 z-score
TTAGGTATCATTTTCCTTTAGTGCTAG,2.17 z-score
TTAGATTTCATTTTCGATTAGTGCTAG,8.59 z-score
TCACCAATCAGGACTCAGACTGTGCTA,0.179 z-score
CCAGCTCTTTCGTTACTTCCTGTGCTA,3.14 z-score
CACGGTTCCCTTTTCCTGACGTGCTAG,2.62 z-score
ATAGGACTGGGTTTCGGTTAGTGCTAG,4.26 z-score
TTAGGACTGGGTCTAGGTTAGTGCTAG,-0.775 z-score
GGCGATATCAGACTGGAGACGTGCTAG,-0.569 z-score
TTAGGACCGGGGACTGGGTTAGTGCTA,-1.01 z-score
TCATGTCTGGGTATTTTACTGTGCTAG,0.737 z-score
GACGGTATCGACTATCGGCACGTGCTA,-0.164 z-score

# Block 3
# Target: RING finger protein unkempt homolog, zinc fingers 1-6, SBP tag (UNK, Homo sapiens, UniProt Q9C0B0, residues 30-357)
# Chain of UniProt Q9C0B0 (30-357, looked up): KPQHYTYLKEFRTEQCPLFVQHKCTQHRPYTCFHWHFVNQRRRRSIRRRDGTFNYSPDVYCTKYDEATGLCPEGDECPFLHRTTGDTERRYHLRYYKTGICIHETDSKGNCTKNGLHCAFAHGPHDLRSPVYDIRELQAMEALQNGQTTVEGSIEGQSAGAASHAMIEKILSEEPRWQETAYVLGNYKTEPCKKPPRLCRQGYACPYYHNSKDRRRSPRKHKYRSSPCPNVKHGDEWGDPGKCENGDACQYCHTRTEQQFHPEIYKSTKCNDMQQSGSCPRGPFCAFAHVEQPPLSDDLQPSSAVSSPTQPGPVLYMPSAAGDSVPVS
# Technique: RNA Bind-n-Seq
# Molecule type: RNA
# Sample: in vitro
# Tested at: 100 nM
# Notes: RNA with constant flanks, vertebrate orthologous sites, ends assumed
# Baseline: input RNA pool
# Direction: higher = stronger binding
# Constant ends, left off below: GGGAGUUCUACAGUCCGACGAUC … CAACAGAGGAUUGAGCAUCA
Oligonucleotide,bound/input enrichment
CAGCUGAUUCGCUCAUUGGAAGAGCUGCUCAUAUUGCAGUUCUUGAUUCUGAAAUAUUUUUAGAAAAGUUCUUUCUGGUUGCUGCCCUAAAAUACUUCCAAUAGGAGAGGAGCAUUAUGA,0.869 ratio
CCUCUUAAUCCCAUCUCUUCAGUUUCAUAGAACUGCAGUAUUACCUUCAAUUGUAUCUUUGGUGGACUUAUUUUUAAUUCUAGGGAAACUUCCAGUGUGGAUACUGUGAGCUAGAUGGAG,0.732 ratio
GGGGGGUGACAGCUGGCCAGGCCUUUCUGCCUACAAUGACAACAGUCCUAGAUCUCACCAGAGUCCAUCUCCUGUUCCCACCCCCACCAGCCACAGUUCCUCUCGCUCUGAUGUCGCUCU,1.47 ratio
UACAAUAAUGAAAACCUACUAGGAAUUUUUUUAUUUUUCCAUUUUCCCCUUAGGCAUACUUAGUCUCUUUUUUUCCCUAGGCAGAUCAUUCUGAGUGUGCGAGUGUGUGUGCACAUGUUA,4.29 ratio
CAUUGUAUCCUGCUGUAUAAUAAACAAUCUUAGACAUUUAUCAACUGUUGAUACAAAUGUUAGUCCCUAACCACUUUUUAUAUGUUUUAAAUUUUUGAAAUUCAAGUGUACCUGCCAUAA,2.52 ratio
UUCCUUUUUCUAUUUUUUUUUCUUUCGUUCUUUCUUUUUUUUCCUUUUUUUUCUUUUUUGUAGUUGUUGUUACCCACGCCAUUUUACGUCUCCUUCACUGAAGGGCUAGAGUUUUAACUU,6.03 ratio
CCUUCUGUAGAGAACAAUUUUCACUGAAGCCAUUGGCAAAUUCCCCCCACCAGACUUUUCUUUGGAGCUCUUUAAUUUCGUACAAUCUUGCUGUGUUGGUCAUUGUUAGCCCUGAAUCCA,0.862 ratio
AUCCCUCAGUGACAGUAUGCCGUCUGUAGCAGAUUCCCACUCGAGUCACUUUUCUGAAUUUAGUUGUUCUGACCUAGAAAGCAUGAAAACUUCUUGUAGUCAUGGUUCCACUGAUUAUCA,0.484 ratio
ACCUUAAAUAGAUGGUAGUAUAUGUUUCAUAAAGAAGUCUUUAUAAUUUUGUUUGGCAUACAGUAUUUUGGAAUUUGUAUAAUGAGGAUGUUUAGAAGCCACAUACAUGGCUUUUUUUAA,0.66 ratio
AGUAGUAGAAUGGACCGUUUCCACAUAAAAGGCAAGGGAAAACUUGGAAGUGAUUGGGACUAUCCCCAGUGAGUACCCACAUUUCAUUUCACUUCUACACAUGGUCACCUUCUAAGGGGG,0.382 ratio
GGACAAAAACGUUUUCACUGGGUUUUGCCUGUAAGAAAACAAUGUACCCGAGCACACACAUAGAGCUUUUUAAUAGCACUAACCAAUGCCUUUUUAGAUGUAUUUUUGAUGUAUAUAUCU,0.748 ratio

# Block 4
# Target: RNA binding protein fox-1 homolog 2, RRM domain, GST-SBP tag (RBFOX2, Homo sapiens, UniProt O43251-10, residues 100-194)
# Technique: RNA Bind-n-Seq
# Molecule type: RNA
# Sample: in vitro
# Tested at: 365 nM
# Notes: natural RNA segment, single round, ends assumed
# Baseline: no-protein control
# Direction: higher = stronger binding
# Constant ends, left off below: GGGAGUUCUACAGUCCGACGAUC … UGGAAUUCUCGGGUGCCAA
# Residues (chain): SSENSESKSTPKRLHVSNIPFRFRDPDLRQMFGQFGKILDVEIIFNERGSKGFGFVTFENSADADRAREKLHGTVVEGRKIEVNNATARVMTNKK
Oligonucleotide,RBNS enrichment (R)
GGAGGAAGACGACGAUCAGAAAGCUGUGAAGGAUGAACUGUAGUGCAGAAGCCAGAUCUGGGCGCCUGAACCCAAAACCUCGGUGGGCCACGCUCCCAGCAGCCCACAUC,0.337
GUUCACAACUAAGAAUAAAUACCUAGAGCUACUUGUGAGUGAAUCAUUGGCUUCUAGAAAUCAGAUGCCCAGAUGAUCCAAGACUAGUUUGUUAUCUCAUCUGGAACCUA,0.283
CUACAGCUAUUUGAGUCCCUAGACCUUAUUUGAUCAUAUUCAAAAGAUCAUUUCCCAUGCUUGCUUUGAUUUGGUCCUCAAUAAAUUAAAAUGAUCCACACUUUCACACU,1.98
ACCCCUAGCCACCAGUGUCCCCAAGUGCCCCUCACCCUGCCAGGUGCUCAUUGUAACCAUCGUUCACCAGUGUCCGGCCCCUAGUAGGACCACACAUCACUGCCUGAACU,0.493
CCCAGCCGGUUUGGAUUACAGGCCUGUGCUGGAACAUCAUCUCAGUUGGCCACCUUCCUGGCAGGCUGUAGACCUGACAUUUUGAGACAAGCCUAGAGGAGUCAGGAGCA,2.53
UGUUUAACAUGGAGUCUCACUCUAGUCCAGACUGGCCUCAAGCUCAUGGUUAACUCUCCUGCUAUAACCUCCUGGGUUACAGUCAUACAUUACGGUGCCCAGAUUCAAAA,0.179
UGGCUUCUAGUCUGGUGUUCUGAGUACUUGAUUUCAGGUCAAUAACGGUCCCCCCUCACUCCACACUGGCACGUUUGUGAGAAGAAAUGACAUUUUGCUAGGAAGUGACC,0.476
CAUGUGUGGCAUCUUUUUCAUGCCACCAACAAACUUGUUGUGUGUGUGCGUGUGUGUGUGUGUGUGUGUGUGUGUGUGUGUGUUCUGUACCCACUAGGAUUUGUUUAGGU,7.51
UGCCAGACCAAUGAUACCCAGAGCUACCUGCCGCCAACUUGUUGAGAUGUGUGUUUGACUGUGAGAGAGUGUGUGUUUGUGUGUGUGUUUUGCCAUGAACUGUGGCCCCA,1.71
GCGGUUUUGAGCUUUCUAUAAGCUAUAGCUUUGUUUAUUUCACCCGUUCACUUACUGUAUAAUUUAAAAUCAUUUAUGUAGCUGAGACACUUCUGUAUUUCAAUCAUAUC,0.574
GGUGAAGGUUUUCUUUCAGUUAGGGUACUUGGCAAGGUCCAUUCUAGUGUAGCUGAAGAGGAAGCUAUACUAUUUUCUGUUUACUGUAUUUUGCUCCCUAUUUUAUGCUU,0.637
UUUUAUUUCAUUUCUAAGAUUUUUUUUUUAACACUCCGUAUUCUGGAGCAUUUUUUUACAAUUUGGAUCUCUGCCAGUAUUGUUAAAAUUUUAUUAAAAUCAUCCAGCAC,1.05

# Block 5
# Target: Histone acetyltransferase KAT6A, winged helix 2, GST fusion (KAT6A, Homo sapiens, UniProt Q92794, residues 85-181)
# Technique: protein binding microarray
# Molecule type: double-stranded DNA, one strand shown
# Sample: in vitro
# Tested at: not given
# Notes: 8-mer, flanks averaged, mean of 2 arrays, mostly near background
# Baseline: not given
# Direction: higher = stronger binding
# Residues (chain): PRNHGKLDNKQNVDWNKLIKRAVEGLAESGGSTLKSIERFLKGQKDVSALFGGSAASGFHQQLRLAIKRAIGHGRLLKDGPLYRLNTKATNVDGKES
Oligonucleotide,E-score
CACGGCCG,0.162
AACACTCC,-0.0947
CAGACATA,-0.12
CCGGGGAC,0.0772
CAATCATC,-0.144
CAGTTATA,-0.091
CTGGCCCC,0.264
ACTCCAGG,-0.0812
CGTTCAAC,0.081
AGTGTCTA,-0.0297
CCCATATC,-0.0321
ACTTATTG,-0.277
CCTACACC,-0.14
AGGACGGC,0.0374
AGGTCTCC,-0.0328
CGGCACGA,0.231
GCAATGGC,0.0263
CACATGTC,-0.104
CTCTAAGC,0.0761
ATTCACTA,0.0386
CCGAATAG,-0.0482

# Some of these lines once more (block 2):
Oligonucleotide,fitted relative affinity
GACTGTATCGACTATCGGGACGTGCTA,0.359 z-score
TACGGTATCGACTTTCGGGACGTGCTA,3.28 z-score
TTAGGTATCGTTTTCGGTTAGTGCTAG,6.9 z-score
TCATGCTTGTGTCTGGGACTGTGCTAG,0.547 z-score
GACGGTATCCACTTTCGGGACGTGCTA,5.16 z-score
TCAGAACTGAGTATCGATTAGTGCTAG,-0.285 z-score
TTAGGTATCGGTATAGGTTAGTGCTAG,0.334 z-score
TTAGGTATCATTTTCCTTTAGTGCTAG,2.17 z-score
TTAGATTTCATTTTCGATTAGTGCTAG,8.59 z-score
TCACCAATCAGGACTCAGACTGTGCTA,0.179 z-score
CCAGCTCTTTCGTTACTTCCTGTGCTA,3.14 z-score
CACGGTTCCCTTTTCCTGACGTGCTAG,2.62 z-score
